Measured values from different studies.
Every numbered part comes from another study and shows a few of its results, in no order. “And” joins repeats or separate records; there may be more than shown.
Chain of UniProt Q14004 (whole entry, looked up): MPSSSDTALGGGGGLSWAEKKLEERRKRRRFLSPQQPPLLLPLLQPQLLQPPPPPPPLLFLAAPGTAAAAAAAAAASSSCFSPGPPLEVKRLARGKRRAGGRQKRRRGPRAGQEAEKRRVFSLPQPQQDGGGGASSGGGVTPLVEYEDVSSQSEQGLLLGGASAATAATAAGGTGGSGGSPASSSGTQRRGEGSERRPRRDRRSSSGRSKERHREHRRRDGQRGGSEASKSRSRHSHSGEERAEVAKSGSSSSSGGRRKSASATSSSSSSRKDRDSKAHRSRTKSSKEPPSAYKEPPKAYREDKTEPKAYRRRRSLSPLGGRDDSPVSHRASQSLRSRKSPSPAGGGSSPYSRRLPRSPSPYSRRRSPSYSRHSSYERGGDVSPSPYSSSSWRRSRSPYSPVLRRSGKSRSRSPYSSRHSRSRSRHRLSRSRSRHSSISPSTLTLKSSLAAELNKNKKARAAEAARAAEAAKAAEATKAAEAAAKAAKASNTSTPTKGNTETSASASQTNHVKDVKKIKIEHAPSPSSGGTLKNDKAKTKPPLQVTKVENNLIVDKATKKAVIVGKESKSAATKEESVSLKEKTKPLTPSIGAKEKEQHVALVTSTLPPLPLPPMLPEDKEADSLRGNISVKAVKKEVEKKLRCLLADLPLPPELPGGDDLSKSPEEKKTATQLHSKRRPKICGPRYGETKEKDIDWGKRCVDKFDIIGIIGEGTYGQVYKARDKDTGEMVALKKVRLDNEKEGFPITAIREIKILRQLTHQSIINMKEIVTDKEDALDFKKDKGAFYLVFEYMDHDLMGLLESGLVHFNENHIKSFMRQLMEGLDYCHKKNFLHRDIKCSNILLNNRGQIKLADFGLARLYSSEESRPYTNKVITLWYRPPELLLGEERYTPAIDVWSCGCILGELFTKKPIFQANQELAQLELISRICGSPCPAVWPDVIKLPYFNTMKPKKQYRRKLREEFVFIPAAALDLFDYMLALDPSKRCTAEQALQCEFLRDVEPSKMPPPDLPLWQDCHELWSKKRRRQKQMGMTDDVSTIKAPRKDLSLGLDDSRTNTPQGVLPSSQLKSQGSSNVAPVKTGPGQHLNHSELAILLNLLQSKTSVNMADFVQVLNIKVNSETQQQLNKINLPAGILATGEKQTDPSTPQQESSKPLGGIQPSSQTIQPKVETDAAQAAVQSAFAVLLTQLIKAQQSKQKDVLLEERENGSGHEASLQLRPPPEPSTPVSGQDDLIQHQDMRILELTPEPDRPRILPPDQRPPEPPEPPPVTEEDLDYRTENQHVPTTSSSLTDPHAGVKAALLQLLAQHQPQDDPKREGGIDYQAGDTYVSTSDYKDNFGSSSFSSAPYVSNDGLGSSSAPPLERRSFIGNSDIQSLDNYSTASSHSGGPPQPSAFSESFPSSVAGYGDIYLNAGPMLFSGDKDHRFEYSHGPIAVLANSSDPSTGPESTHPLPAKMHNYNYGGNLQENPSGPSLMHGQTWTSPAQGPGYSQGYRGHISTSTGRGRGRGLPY
Chain of UniProt P53671 (whole entry, looked up): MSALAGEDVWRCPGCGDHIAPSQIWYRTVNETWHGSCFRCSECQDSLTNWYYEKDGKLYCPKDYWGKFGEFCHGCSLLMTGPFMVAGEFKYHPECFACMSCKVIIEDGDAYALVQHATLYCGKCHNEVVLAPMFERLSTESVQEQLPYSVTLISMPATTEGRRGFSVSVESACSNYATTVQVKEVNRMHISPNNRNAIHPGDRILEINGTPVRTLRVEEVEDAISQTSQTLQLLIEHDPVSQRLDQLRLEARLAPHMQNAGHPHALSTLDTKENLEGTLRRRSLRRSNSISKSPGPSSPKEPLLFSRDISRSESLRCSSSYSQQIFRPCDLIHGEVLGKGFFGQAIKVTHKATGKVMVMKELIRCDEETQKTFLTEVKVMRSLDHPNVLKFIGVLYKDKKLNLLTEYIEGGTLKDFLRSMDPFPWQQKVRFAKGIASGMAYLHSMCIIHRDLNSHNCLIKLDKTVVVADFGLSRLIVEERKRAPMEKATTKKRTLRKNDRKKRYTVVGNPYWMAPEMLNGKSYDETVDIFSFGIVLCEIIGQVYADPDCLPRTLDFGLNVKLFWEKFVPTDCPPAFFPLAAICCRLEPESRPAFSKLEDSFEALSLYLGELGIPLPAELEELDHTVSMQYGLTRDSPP
Chain of UniProt Q9UQB9 (whole entry, looked up): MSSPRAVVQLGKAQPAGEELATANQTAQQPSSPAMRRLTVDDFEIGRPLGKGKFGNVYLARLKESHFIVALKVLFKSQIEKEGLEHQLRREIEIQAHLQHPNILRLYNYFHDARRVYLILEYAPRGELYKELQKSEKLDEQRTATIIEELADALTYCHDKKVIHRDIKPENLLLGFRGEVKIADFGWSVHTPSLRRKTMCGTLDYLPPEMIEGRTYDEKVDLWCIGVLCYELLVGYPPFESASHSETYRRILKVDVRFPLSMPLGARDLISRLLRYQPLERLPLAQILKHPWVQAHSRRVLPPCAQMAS
Chain of UniProt P11362 (whole entry, looked up): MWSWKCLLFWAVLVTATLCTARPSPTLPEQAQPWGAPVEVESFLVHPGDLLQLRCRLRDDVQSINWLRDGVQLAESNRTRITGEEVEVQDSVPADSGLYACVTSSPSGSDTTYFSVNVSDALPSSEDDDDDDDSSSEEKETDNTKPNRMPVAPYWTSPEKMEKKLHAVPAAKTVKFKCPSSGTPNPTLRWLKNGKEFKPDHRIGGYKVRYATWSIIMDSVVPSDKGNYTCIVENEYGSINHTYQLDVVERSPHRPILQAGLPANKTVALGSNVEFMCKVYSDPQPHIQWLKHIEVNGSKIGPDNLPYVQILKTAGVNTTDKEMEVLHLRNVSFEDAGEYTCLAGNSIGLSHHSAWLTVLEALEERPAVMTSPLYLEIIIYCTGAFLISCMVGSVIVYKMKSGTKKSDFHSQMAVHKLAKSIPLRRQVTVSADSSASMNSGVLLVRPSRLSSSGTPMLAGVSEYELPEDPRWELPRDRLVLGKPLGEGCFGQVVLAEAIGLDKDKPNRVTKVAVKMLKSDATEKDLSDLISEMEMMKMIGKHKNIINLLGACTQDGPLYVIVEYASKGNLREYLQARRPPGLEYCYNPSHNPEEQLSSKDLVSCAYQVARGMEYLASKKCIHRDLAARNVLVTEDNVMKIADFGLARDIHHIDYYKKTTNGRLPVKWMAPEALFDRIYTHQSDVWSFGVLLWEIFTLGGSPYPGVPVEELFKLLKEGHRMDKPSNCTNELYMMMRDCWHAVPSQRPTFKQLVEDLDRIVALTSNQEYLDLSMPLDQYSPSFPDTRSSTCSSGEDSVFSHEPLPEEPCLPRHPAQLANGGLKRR
Chain of UniProt Q86YV6 (whole entry, looked up): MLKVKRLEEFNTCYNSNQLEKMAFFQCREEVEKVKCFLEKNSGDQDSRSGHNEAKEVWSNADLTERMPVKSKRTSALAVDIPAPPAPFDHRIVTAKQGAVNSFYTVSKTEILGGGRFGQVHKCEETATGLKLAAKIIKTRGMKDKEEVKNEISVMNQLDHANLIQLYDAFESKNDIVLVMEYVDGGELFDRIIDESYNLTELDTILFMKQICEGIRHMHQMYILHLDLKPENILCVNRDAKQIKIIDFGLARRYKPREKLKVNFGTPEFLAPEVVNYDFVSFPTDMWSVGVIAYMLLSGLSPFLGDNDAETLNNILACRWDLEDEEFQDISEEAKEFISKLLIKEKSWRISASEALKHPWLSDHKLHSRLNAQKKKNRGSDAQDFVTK

Sample 1
Cell line: Huh-7
Tested at: 10 µM
Time: 24 h
SMILES | viability
CN(C)CCCN1c2ccccc2Sc2ccc(Cl)cc21 | 105%
Cc1ncc([N+](=O)[O-])n1CCO | 104%
COc1ccc(OC)c(C(O)CNC(=O)CN)c1 (centres unmarked) | 89.3%
NC(=O)c1ccc([N+](=O)[O-])cc1Cl | 97.2%
CN(C)CCCOc1nn(Cc2ccccc2)c2ccccc12 | 89.2%
CNCCCC1c2ccccc2C=Cc2ccccc21 | 82.8%

Sample 2
Target: Serine/threonine-protein kinase N1 (PKN1, Homo sapiens, UniProt Q16512)
Chain of UniProt Q16512 (whole entry, looked up): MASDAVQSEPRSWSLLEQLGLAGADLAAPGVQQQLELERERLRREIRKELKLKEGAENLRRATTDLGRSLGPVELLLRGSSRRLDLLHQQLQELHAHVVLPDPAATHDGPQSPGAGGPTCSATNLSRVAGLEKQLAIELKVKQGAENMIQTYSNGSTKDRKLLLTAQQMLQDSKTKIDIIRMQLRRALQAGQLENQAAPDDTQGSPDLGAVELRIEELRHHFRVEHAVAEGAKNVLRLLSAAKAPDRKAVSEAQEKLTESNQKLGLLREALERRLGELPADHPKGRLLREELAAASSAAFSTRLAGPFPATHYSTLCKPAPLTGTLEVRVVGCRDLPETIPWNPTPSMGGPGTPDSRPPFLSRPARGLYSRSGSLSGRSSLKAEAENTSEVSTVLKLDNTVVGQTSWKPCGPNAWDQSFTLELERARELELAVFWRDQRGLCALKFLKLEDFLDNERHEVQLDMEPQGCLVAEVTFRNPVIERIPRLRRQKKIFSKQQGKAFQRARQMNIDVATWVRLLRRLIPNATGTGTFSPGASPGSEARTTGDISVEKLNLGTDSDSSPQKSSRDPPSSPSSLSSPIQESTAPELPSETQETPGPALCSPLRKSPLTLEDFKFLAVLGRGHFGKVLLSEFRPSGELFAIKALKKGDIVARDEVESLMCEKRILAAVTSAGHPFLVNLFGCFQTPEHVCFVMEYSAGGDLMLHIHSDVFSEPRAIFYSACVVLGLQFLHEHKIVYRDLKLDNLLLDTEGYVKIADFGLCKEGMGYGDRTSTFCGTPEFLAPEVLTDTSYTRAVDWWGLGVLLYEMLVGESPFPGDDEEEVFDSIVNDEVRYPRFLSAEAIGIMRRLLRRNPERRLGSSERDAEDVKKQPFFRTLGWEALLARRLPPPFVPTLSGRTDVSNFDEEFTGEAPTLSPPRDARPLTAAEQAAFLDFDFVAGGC
Effect on: enzyme activity
Action: inhibitor
Tested at: 0.5 µM
Baseline: control
Compound | remaining activity [%]
C[C@@H](N)[C@H]1CC[C@H](C(=O)Nc2ccncc2)CC1 | 41.7
O=Nc1c(-c2c(O)[nH]c3ccccc23)[nH]c2ccccc12 | 87.5
O=C1c2ccccc2-c2nc3nnnn3nc21 | 97.5
COc1cc2c(N3CCN(C(=O)Nc4ccc(OC(C)C)cc4)CC3)ncnc2cc1OCCCN1CCCCC1 | 108
FC(F)(F)c1ccc(/C=C/c2nc(COc3ccc(CCCCn4ccnn4)cc3)co2)cc1 | 97
O=c1c(-c2ccc(F)cc2)c(-c2ccncc2)[nH]n1-c1ccc(Cl)cc1 | 92.4
NC(=O)c1ccc(-c2nc(-c3ccc4c(c3)OCCO4)c(-c3ccccn3)[nH]2)cc1 | 98.8
Clc1ccc(Nc2nnc(Cc3ccncc3)c3ccccc23)cc1 | 95.9
N#C/C(=C(/N)SC1C=CC=CC1)c1cccc(C(O)c2ccncc2)c1 (centres unmarked) | 106
O=C(O)/C=C/c1cc(Br)c(Br)c(Br)c1Br | 85.5
CC(C)N(CCC(=O)c1ccc2ccccc2c1)Cc1ccccc1 | 107
O=C1NC(=O)/C(=C/c2ccc3c(c2)OC(F)(F)O3)S1 | 98.5
CNc1cc2c(Nc3cccc(Br)c3)ncnc2cn1 | 102
c1cc(-c2cnn3cc(-c4ccc(OCCN5CCCCC5)cc4)cnc23)ccn1 | 44.6
N#CC(c1ccnc(NCCc2cccnc2)n1)c1nc2ccccc2s1 (centres unmarked) | 96.3
O=C(c1ccccc1)c1ccc(N2CCOCC2)cc1O | 104
CCN(CC)CCCCN1c2ccccc2Oc2ccc(Cl)cc21 | 89.6
CC(C)n1cnc2c(Nc3cccc(Cl)c3)nc(NCCO)nc21 | 101
CCCCc1c(-c2ccc(O)cc2)[nH]c2nccnc12 | 90.3
CC(C)(C)c1nc2c3cc[nH]c(=O)c3c3cc(F)ccc3c2[nH]1 | 28.3
Nc1nc(Nc2ccc(S(N)(=O)=O)cc2)nn1C(=S)Nc1c(F)cccc1F | 9.7
NC(=O)c1cccc(-c2cc(Nc3ccc(OC(F)(F)F)cc3)ncn2)c1 | 98.9

Sample 3
SMILES: Cc1cc(-n2nc(Cc3cc(F)cc(C(F)(F)F)c3)nc2C)ccc1C(N)=O
Effect on: cell-free assay
Method: competition with immobilised ligand
Tested at: 1 µM
target | remaining binding
Myotonin-protein kinase (DMPK, Homo sapiens, UniProt Q09013) | 100%
Myosin light chain kinase 2, skeletal/cardiac muscle (MYLK2, Homo sapiens, UniProt Q9H1R3) | 91%
Fibroblast growth factor receptor 1 (FGFR1, Homo sapiens, UniProt P11362) | 100%
LIM domain kinase 2 (LIMK2, Homo sapiens, UniProt P53671) | 95%
Myosin light chain kinase family member 4 (MYLK4, Homo sapiens, UniProt Q86YV6) | 100%
MAP/microtubule affinity-regulating kinase 4 (MARK4, Homo sapiens, UniProt Q96L34) | 77%
Serine/threonine-protein kinase haspin (HASPIN, Homo sapiens, UniProt Q8TF76) | 100%
Serine/threonine-protein kinase SIK2 (SIK2, Homo sapiens, UniProt Q9H0K1) | 100%
Aurora kinase C (AURKC, Homo sapiens, UniProt Q9UQB9) | 100%
Cyclin-dependent kinase 17 (CDK17, Homo sapiens, UniProt Q00537) | 77%
Receptor-type tyrosine-protein kinase FLT3 (FLT3, Homo sapiens, UniProt P36888, D835V/ITD) | 100%
Serine/threonine-protein kinase TAO3 (TAOK3, Homo sapiens, UniProt Q9H2K8) | 83%
Wee1-like protein kinase (WEE1, Homo sapiens, UniProt P30291) | 100%
Cyclin-dependent kinase 13 (CDK13, Homo sapiens, UniProt Q14004) | 100%

Sample 4
Cell line: mouse MPNST tumor cells
Method: high-content immunofluorescence imaging
Measured: nuclear SOX9
Tested at: 10 µM
Time: 12 h
Setting: mean of 2 replicates
Baseline: DMSO control
Reading: higher = more nuclear SOX9
SMILES | nuclear SOX9 intensity
OC[C@H]1O[C@@H](n2cnc3c2N=CNC[C@H]3O)C[C@@H]1O | 119 % of DMSO
Cn1c(=O)c2[nH]cnc2n(C)c1=O | 113 % of DMSO
O=C(NCc1ccc(C(F)(F)F)cc1)Nc1cccc2cnccc12 | 116 % of DMSO
COc1cc(/C=C2\CCCN([C@@H](C)c3ccc(F)cc3)C2=O)ccc1-n1cnc(C)c1 | 121 % of DMSO
CC(C)[C@H](CO)Nc1nc(Nc2cc(N)cc(Cl)c2)c2ncn(C(C)C)c2n1 | 131 % of DMSO
CCCCCCOc1cc2c(cc1N(C)c1ncc(C(=O)O)cn1)C(C)(C)CCC2(C)C | 97.9 % of DMSO
Oc1c(CN2CCN(c3ccccn3)CC2)cc(Cl)c2cccnc12 | 227 % of DMSO
CC[C@H]1OC(=O)[C@H](C)[C@@H](O[C@H]2C[C@@](C)(OC)[C@@H](O)[C@H](C)O2)[C@H](C)[C@@H](O[C@@H]2O[C@H](C)C[C@H](N(C)C)[C@H]2O)[C@](C)(O)C[C@@H](C)CN(C)[C@H](C)[C@@H](O)[C@]1(C)O | 132 % of DMSO and 116 % of DMSO and 147 % of DMSO
